{"data": "Assay results collected from several papers", "target": "Voltage-gated inwardly rectifying potassium channel KCNH2 (KCNH2, Homo sapiens, UniProt Q12809)", "note": "Each line is one published result; not all experiments were run side by side. ± gives the spread as reported.", "UniProt Q12809, sequence (whole entry, looked up)": "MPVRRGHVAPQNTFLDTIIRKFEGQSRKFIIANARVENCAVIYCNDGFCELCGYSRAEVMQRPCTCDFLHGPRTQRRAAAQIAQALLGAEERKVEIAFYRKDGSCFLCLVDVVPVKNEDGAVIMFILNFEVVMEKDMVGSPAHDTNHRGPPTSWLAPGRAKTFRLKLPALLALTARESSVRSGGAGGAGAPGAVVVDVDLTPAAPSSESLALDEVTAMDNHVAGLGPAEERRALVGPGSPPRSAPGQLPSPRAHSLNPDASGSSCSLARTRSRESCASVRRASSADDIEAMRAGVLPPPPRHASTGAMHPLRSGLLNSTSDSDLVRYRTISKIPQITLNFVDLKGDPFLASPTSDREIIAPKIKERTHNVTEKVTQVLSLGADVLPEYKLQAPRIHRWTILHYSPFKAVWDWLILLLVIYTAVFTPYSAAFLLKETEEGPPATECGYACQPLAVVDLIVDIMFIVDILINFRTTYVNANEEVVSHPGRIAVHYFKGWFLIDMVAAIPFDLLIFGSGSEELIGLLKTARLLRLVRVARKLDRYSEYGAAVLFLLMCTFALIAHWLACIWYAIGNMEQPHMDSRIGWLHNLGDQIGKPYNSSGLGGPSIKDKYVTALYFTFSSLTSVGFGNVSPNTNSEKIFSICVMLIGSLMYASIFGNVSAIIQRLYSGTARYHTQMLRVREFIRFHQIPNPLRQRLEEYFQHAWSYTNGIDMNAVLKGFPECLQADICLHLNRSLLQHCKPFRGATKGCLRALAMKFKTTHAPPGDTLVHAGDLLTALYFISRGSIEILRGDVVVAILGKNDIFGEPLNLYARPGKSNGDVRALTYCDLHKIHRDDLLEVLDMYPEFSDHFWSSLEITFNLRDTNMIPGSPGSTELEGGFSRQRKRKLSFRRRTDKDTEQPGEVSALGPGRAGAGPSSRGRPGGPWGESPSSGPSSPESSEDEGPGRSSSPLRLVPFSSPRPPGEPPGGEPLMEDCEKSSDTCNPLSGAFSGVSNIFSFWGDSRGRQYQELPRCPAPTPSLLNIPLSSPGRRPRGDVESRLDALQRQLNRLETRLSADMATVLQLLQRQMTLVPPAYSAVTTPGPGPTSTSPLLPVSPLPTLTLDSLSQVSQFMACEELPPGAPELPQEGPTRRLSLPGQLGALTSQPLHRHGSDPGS"}
{"SMILES": "COC(=O)C1=CNC=C(C(=O)OC)C1c1ccc(F)c(C(F)(F)F)c1", "test": "ion current, inhibitor, patch clamp", "system": "HEK293", "setting": "pH 7.2", "quantity": "IC50", "result": "> 10 µM"}
{"SMILES": "CC1(F)CN(C(=O)Cn2c(=O)c(C(=O)NCc3ccc(Cl)cc3)cc3nc(N4CCN(CCN)C4=O)cnc32)C1", "test": "ion current, inhibitor, patch clamp", "setting": "40 µM", "quantity": "inhibition", "result": "29%"}
{"SMILES": "Cc1cc(/C=C/C#N)cc(C)c1Oc1nc(NC2CCN(Cc3ccc(S(C)(=O)=O)cc3)CC2)nc2ncccc12", "test": "hERG current, manual patch clamp", "system": "CHO stably expressing hERG", "setting": "10 µM", "quantity": "inhibition", "result": "88.3%"}
{"SMILES": "C[N+](C)(CF)CCO", "test": "ion current, inhibitor, patch clamp", "system": "HEK293", "setting": "pH 7.35", "quantity": "IC50", "result": "> 30 µM"}
{"SMILES": "CC(=O)N(C)CCN1CCN(c2cnc3c(cc(C(=O)NCc4ccc(Cl)cc4)c(=O)n3CC(=O)N3CC(C)(F)C3)n2)C1=O", "how to read": "relative to: hERG IC50 over antiviral EC50", "quantity": "therapeutic index", "result": 7.2}
{"SMILES": "COc1ccc(C#CC2=C[C@H]3C[C@@]4(OC(=O)C=C24)[C@H]2CC[C@H](C(OC)OC)N32)cc1", "test": "ligand displacement, radioligand", "setting": "10 µM", "quantity": "inhibition", "result": "28%"}
{"SMILES": "CN1CCCN(c2cnc3c(cc(C(=O)NCc4ccc(Cl)cc4)c(=O)n3CC(=O)N3CC(C)(F)C3)n2)C1=O", "how to read": "relative to: hERG IC50 over antiviral EC50", "quantity": "therapeutic index", "result": 5.2}
{"SMILES": "O=C(O)c1ccc(/C=C2\\SC(=S)N(Cc3cccc(C(F)(F)F)c3)C2=O)cc1", "test": "ion current, inhibitor, patch clamp", "system": "CHO", "setting": "1 µM", "quantity": "inhibition", "result": "-1.77%"}
{"SMILES": "Cn1ccc2cc(-n3c(=O)[nH]c4sc5c(c4c3=O)CCCC5)ccc21", "test": "ion current, inhibitor", "setting": "10 µM", "quantity": "inhibition", "result": "4%"}
{"SMILES": "c1ccc(OC[C@H]2CN(CCN3CCc4ccccc43)CCO2)nc1", "test": "potassium current inhibition, inhibitor, PatchXpress electrophysiology", "quantity": "Emax", "result": "64.3 ± 8.8%"}
{"SMILES": "Cc1cccc(O[C@H]2CCC[C@@H](C(C)CNCc3ccncc3)C2)c1 (relative stereo)", "test": "Cerep safety panel", "setting": "10 µM", "quantity": "inhibition", "result": "84%"}
{"SMILES": "O=C1NC2(CC2)COc2ncc(F)cc2[C@H]2COCCN2c2ccn3ncc1c3n2", "test": "potassium current, whole-cell patch clamp", "system": "CHO cells expressing hERG", "setting": "0.49 µM", "quantity": "inhibition", "result": "3.81 ± 1.44%"}
{"SMILES": "O=c1[nH]cccc1[C@H](CO)Nc1nc(N2C[C@@H]3C[C@H]2CO3)c2cc(-c3ccccc3)sc2n1", "test": "ion current, inhibitor", "quantity": "IC50", "result": "> 50 µM"}
{"SMILES": "COCC(=O)N1CCc2cc(-c3csc(NC(=O)c4cc(OC)cc(OC)c4)n3)ccc21", "setting": "10 µM, 60 (unit not given), pH 7.4", "quantity": "inhibition", "result": "-4%"}
{"note": "Excerpt of the above:"}
{"SMILES": "O=c1[nH]cccc1[C@H](CO)Nc1nc(N2C[C@@H]3C[C@H]2CO3)c2cc(-c3ccccc3)sc2n1", "test": "ion current, inhibitor", "quantity": "IC50", "result": "> 50 µM"}
